{"data": "Literature values as cited in several papers", "note": "Each line is one published result; not all experiments were run side by side. ± marks the error that the study gave."}
{"Structure (SMILES)": "O=c1[nH]c(=O)n([C@H]2C[C@H](O)[C@@H](CO)O2)cc1CCC[18F]", "tested on": "RG2 expressing HSV1-tk", "setting": "2 h", "how to read": "baseline: HSV1-tk over wild-type RG2", "measurement": "uptake selectivity ratio", "result": "20.5 ± 4.4"}
{"Structure (SMILES)": "CCCC(C)(C)C(=O)O", "tested on": "CALUX reporter cell lines", "test": "reporter gene", "setting": "cell-total, minimum across", "measurement": "EC10", "result": "24 µM"}
{"Structure (SMILES)": "Cc1n[nH]c(C(=O)Nc2cnc3[nH]c(-c4ccccc4)cc3c2)c1C", "tested on": "KIT D816V cells", "measurement": "GI50", "result": "0.0061 µM"}
{"Structure (SMILES)": "CCC(CC)C(=O)O", "tested on": "CALUX reporter cell lines", "test": "reporter gene", "setting": "cell-total, minimum across", "measurement": "EC10", "result": "41 µM"}
{"Structure (SMILES)": "NC(=S)NN=Cc1ncccc1N", "tested on": "human cervical cancer cells", "setting": "concentration not given, clinically attainable concentrations and times, with: cisplatin", "measurement": "cell survival", "result": "40%"}
{"Structure (SMILES)": "C=CCC(CCC)C(=O)O (centres unmarked)", "tested on": "CALUX reporter cell lines", "test": "reporter gene", "setting": "cell-total, minimum across", "measurement": "EC10", "result": "9 µM"}
{"Structure (SMILES)": "CO[C@]1(C(=O)N[C@@H](C)c2ccc(-n3cc(F)cn3)nc2)CC[C@H](c2nc(C)cc(Nc3cc(C)[nH]n3)n2)CC1", "tested on": "LC-2/AD (CCDC6-RET)", "test": "cell growth", "measurement": "GI50", "result": "0.004 µM"}
{"Structure (SMILES)": "CCCC(CCC)C(=O)O", "tested on": "CALUX reporter cell lines", "test": "reporter gene", "setting": "cell-total, minimum across", "measurement": "EC10", "result": "9 µM"}
{"Structure (SMILES)": "Cc1ncccc1NC(=O)c1ccc2c(c1)C(=O)C[C@@H]1C[C@@](O)(c3ccccc3)[C@H](O)C[C@@]21Cc1ccccc1", "tested on": "A549", "test": "IL-6 release", "setting": "concentration not given", "measurement": "inhibition", "result": "60 to 80%"}
{"Structure (SMILES)": "CC(C)(O/N=C(\\C(=O)N[C@@H]1C(=O)N2C(C(=O)[O-])=C(C[n+]3ccccc3)CS[C@H]12)c1csc(N)n1)C(=O)O", "tested on": "Escherichia coli", "test system": "clinical isolate RKI-No_314/16", "measurement": "MIC", "result": "≤ 2 µg/mL"}
{"Structure (SMILES)": "O=S(=O)(O)O", "tested on": "Ehrlich ascites tumour cells", "test": "anion exchange, substrate", "setting": "with: Cl-", "measurement": "Km", "result": "~2000 µM"}
{"Structure (SMILES)": "CCCCCC(CCC)C(=O)O (centres unmarked)", "tested on": "CALUX reporter cell lines", "test": "reporter gene", "setting": "cell-total, maximum across", "measurement": "EC10", "result": "100 µM"}
{"Structure (SMILES)": "Cc1ncccc1NC(=O)c1ccc2c(c1)CC[C@@H]1C[C@@](O)(C(F)(F)F)CC[C@@]21Cc1ccccc1", "tested on": "A549", "test": "TNF-alpha release", "setting": "concentration not given", "measurement": "inhibition", "result": "60 to 80%"}
{"Structure (SMILES)": "O=C(c1ccc(Cl)cc1)N(Cc1ccccc1)C1CCCCC1", "tested on": "primary microglia", "test": "measured: IL-1β, IL-6, TNF-α", "setting": "concentration not given, with: LPS", "measurement": "cytokine release", "result": "decreased"}
{"Structure (SMILES)": "CC1(C)S[C@@H]2[C@H](NC(=O)[C@H](N)c3ccccc3)C(=O)N2[C@H]1C(=O)O", "tested on": "Enterobacter cloacae", "test system": "clinical isolate RKI-No_76/15", "measurement": "MIC", "result": "> 16 µg/mL"}
{"Structure (SMILES)": "O=c1ncccn1[C@@H]1O[C@H](CO)[C@@H](O)[C@H]1O", "tested on": "TK6", "measurement": "IC20", "result": "20 µM"}
{"Structure (SMILES)": "O=c1[nH]c(=O)n([C@@H]2O[C@H](CO)[C@@H](O)[C@@H]2F)cc1CCCC[18F]", "tested on": "RG2 expressing HSV1-tk", "setting": "2 h", "how to read": "baseline: HSV1-tk over wild-type RG2", "measurement": "uptake selectivity ratio", "result": "7.8 ± 4.3"}
{"Structure (SMILES)": "CCCC(C)C(=O)O (centres unmarked)", "tested on": "CALUX reporter cell lines", "test": "reporter gene", "setting": "cell-total, maximum across", "measurement": "EC10", "result": "41 µM"}
{"Structure (SMILES)": "O=C(Nc1nccs1)c1cnn(-c2ccccc2)c1-n1cccc1", "tested on": "human monocytes", "test": "phagocytosis of anti-D RBCs", "setting": "5 µM, commercial sample", "measurement": "inhibition", "result": "> 69%"}
{"Structure (SMILES)": "O=c1[nH]c(=O)n([C@@H]2O[C@H](CO)[C@@H](O)[C@@H]2F)cc1CCC[18F]", "tested on": "RG2 expressing HSV1-tk", "setting": "2 h", "how to read": "baseline: HSV1-tk over wild-type RG2", "measurement": "uptake selectivity ratio", "result": "5 ± 0.7"}
{"Structure (SMILES)": "Nc1cc(C(F)(F)F)c(-c2nc(N3CCOCC3)nc(N3CCOCC3)n2)cn1", "tested on": "CAL-27", "measurement": "GI50", "result": "1.52 µM"}
{"Structure (SMILES)": "C=CCCC(=O)O", "tested on": "CALUX reporter cell lines", "test": "reporter gene", "setting": "cell-total, minimum across", "measurement": "EC10", "result": "38 µM"}
{"Structure (SMILES)": "O=C1c2ccncc2C(=O)c2c1[nH]c1ccccc21", "tested on": "A549", "test": "mitochondrial fission, inhibitor", "measurement": "minimum effective concentration", "result": "0.5 µM"}
{"Structure (SMILES)": "C[C@@H](O)[C@H](NC(=O)[C@@H]1CSSC[C@H](NC(=O)[C@@H](Cc2ccccc2)NC(=O)CN2CCCN3CCN(CCCN(CC(=O)O)CC3)CC2)C(=O)N[C@@H](Cc2ccc(O)cc2)C(=O)N[C@H](Cc2c[nH]c3ccccc23)C(=O)N[C@@H](CCCCN)C(=O)N[C@@H]([C@@H](C)O)C(=O)N1)C(=O)O [copper-64 labelled]", "tested on": "AR-42J rat pancreatic tumour cells", "test": "receptor binding", "measurement": "Bmax", "result": "1600 fmol/mg"}
{"Structure (SMILES)": "C/C(=N\\c1ccc(O)cc1)c1cc2ccccc2n1C", "tested on": "DU-145", "setting": "concentration not given, with: EGF", "measurement": "cell migration", "result": "decreased"}
{"Structure (SMILES)": "C[C@H]1COCCN1c1nc(-c2cnc(N)cc2C(F)F)nc(N2CCOCC2)n1", "tested on": "SK-N-AS", "measurement": "GI50", "result": "0.402 µM"}
{"Structure (SMILES)": "CCCCC(C)C(=O)O (centres unmarked)", "tested on": "CALUX reporter cell lines", "test": "reporter gene", "setting": "cell-total, maximum across", "measurement": "EC10", "result": "4 µM"}
{"Structure (SMILES)": "O=c1[nH]c(=O)n([C@@H]2O[C@H](CO)[C@@H](O)[C@@H]2F)cc1CCCCC[18F]", "tested on": "RG2 expressing HSV1-tk", "setting": "2 h", "how to read": "baseline: HSV1-tk over wild-type RG2", "measurement": "uptake selectivity ratio", "result": "5.5 ± 2.3"}
{"Structure (SMILES)": "Cc1c(C#N)cccc1[C@@H](C)Nc1nnc(C)c2cnc(N3CCOCC3)cc12", "tested on": "A549", "test": "3D cell viability", "setting": "14 d", "measurement": "IC50", "result": "0.135 ± 0.0578 µM"}
{"note": "A few entries again:"}
{"Structure (SMILES)": "C[C@H]1COCCN1c1nc(-c2cnc(N)cc2C(F)F)nc(N2CCOCC2)n1", "tested on": "SK-N-AS", "measurement": "GI50", "result": "0.402 µM"}
{"Structure (SMILES)": "O=S(=O)(O)O", "tested on": "Ehrlich ascites tumour cells", "test": "anion exchange, substrate", "setting": "with: Cl-", "measurement": "Km", "result": "~2000 µM"}
{"Structure (SMILES)": "O=c1[nH]c(=O)n([C@@H]2O[C@H](CO)[C@@H](O)[C@@H]2F)cc1CCCC[18F]", "tested on": "RG2 expressing HSV1-tk", "setting": "2 h", "how to read": "baseline: HSV1-tk over wild-type RG2", "measurement": "uptake selectivity ratio", "result": "7.8 ± 4.3"}
{"Structure (SMILES)": "C=CCC(CCC)C(=O)O (centres unmarked)", "tested on": "CALUX reporter cell lines", "test": "reporter gene", "setting": "cell-total, minimum across", "measurement": "EC10", "result": "9 µM"}
